Experimental data gathered from unrelated publications.
A part holds a random share of what one study measured. “And” joins repeats or separate records; there may be more than shown.
Sequence of UniProt O75676 (whole entry, looked up): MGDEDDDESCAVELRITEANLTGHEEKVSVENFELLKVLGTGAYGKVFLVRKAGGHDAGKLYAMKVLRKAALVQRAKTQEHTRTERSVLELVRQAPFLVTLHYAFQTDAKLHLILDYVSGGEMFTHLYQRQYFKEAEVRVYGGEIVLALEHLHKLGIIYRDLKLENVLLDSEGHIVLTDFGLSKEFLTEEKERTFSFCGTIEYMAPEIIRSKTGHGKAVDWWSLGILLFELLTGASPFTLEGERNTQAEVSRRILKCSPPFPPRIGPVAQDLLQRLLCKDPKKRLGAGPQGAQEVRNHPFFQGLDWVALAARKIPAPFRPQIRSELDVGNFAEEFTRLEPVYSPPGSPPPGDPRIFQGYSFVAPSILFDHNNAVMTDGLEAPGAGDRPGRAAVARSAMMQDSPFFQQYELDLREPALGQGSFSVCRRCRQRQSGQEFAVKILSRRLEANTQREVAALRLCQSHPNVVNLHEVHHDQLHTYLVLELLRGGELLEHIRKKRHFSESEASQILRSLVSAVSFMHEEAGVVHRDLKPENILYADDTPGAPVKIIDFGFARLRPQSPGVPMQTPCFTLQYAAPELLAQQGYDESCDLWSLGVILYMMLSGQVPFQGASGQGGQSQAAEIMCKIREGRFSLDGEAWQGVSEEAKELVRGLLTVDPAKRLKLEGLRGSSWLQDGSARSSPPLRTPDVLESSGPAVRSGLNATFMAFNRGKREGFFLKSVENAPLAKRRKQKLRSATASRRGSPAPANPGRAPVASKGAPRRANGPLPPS
Sequence of UniProt O75716 (whole entry, looked up): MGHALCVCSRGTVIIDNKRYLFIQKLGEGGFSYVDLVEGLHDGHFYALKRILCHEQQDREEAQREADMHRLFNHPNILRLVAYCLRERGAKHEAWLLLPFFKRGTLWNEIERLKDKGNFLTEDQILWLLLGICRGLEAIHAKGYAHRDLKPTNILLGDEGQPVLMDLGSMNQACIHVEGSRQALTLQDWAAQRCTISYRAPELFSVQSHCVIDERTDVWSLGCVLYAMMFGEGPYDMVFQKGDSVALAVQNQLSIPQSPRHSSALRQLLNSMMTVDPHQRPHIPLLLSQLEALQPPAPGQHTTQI
Sequence of UniProt Q9H1R3 (whole entry, looked up): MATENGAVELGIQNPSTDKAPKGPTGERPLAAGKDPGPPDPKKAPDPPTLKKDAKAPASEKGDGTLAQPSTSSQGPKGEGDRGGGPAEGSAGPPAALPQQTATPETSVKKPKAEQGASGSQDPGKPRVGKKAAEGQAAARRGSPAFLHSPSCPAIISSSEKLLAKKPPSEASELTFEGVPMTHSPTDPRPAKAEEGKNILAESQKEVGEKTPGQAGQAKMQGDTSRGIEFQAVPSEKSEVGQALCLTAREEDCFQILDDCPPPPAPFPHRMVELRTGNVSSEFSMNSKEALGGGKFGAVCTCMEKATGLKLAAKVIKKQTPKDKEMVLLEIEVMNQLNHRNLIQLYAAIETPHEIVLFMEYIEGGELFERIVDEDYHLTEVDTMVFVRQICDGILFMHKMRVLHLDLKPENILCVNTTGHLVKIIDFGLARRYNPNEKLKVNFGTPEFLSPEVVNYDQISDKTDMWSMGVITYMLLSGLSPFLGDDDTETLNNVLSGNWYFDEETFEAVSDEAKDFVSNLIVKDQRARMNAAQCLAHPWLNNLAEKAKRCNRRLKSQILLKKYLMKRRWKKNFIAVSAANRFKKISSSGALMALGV
Sequence of UniProt P42336 (whole entry, unmodified, looked up): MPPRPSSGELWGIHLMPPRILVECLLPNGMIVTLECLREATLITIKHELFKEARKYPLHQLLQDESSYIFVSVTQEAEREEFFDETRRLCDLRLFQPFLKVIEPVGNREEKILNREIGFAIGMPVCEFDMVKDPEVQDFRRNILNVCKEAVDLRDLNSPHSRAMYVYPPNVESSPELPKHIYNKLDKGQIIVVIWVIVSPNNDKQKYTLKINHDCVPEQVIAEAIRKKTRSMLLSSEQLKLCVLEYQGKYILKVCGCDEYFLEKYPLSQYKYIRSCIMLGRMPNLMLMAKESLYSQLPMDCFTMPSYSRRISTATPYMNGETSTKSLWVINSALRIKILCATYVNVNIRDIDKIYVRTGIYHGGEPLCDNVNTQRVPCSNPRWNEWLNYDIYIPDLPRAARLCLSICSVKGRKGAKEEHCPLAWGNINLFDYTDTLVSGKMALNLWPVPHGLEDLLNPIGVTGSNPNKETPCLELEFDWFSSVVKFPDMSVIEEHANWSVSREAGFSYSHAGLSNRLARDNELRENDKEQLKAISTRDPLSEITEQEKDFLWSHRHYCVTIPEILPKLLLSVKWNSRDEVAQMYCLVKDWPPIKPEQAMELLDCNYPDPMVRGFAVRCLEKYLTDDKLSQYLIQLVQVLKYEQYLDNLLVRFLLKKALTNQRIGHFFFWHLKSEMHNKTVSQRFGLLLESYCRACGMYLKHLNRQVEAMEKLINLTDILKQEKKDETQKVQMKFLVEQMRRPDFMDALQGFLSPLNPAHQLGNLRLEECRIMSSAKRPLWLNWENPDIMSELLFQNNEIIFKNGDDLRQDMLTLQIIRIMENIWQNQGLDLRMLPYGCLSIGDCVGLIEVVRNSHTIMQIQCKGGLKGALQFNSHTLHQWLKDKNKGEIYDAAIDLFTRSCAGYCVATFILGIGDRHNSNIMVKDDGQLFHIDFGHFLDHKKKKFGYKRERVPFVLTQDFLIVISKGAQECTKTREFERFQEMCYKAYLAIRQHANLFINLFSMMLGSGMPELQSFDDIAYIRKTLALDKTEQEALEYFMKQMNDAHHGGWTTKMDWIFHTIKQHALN
Sequence of UniProt P36896 (whole entry, looked up): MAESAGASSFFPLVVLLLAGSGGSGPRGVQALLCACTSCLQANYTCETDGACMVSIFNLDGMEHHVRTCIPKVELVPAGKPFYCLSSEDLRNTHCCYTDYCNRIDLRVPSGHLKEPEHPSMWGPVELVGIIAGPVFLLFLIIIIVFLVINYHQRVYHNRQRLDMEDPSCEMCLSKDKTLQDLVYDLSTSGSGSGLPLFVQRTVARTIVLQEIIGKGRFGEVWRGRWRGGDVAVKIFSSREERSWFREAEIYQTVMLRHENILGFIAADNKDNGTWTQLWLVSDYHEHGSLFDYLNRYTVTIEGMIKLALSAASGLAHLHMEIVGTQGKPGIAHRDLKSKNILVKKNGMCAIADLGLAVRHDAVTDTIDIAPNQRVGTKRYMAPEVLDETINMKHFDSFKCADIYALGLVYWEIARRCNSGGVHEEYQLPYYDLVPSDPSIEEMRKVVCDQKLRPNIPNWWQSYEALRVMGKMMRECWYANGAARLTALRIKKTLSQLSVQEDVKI
Sequence of UniProt Q13233 (whole entry, looked up): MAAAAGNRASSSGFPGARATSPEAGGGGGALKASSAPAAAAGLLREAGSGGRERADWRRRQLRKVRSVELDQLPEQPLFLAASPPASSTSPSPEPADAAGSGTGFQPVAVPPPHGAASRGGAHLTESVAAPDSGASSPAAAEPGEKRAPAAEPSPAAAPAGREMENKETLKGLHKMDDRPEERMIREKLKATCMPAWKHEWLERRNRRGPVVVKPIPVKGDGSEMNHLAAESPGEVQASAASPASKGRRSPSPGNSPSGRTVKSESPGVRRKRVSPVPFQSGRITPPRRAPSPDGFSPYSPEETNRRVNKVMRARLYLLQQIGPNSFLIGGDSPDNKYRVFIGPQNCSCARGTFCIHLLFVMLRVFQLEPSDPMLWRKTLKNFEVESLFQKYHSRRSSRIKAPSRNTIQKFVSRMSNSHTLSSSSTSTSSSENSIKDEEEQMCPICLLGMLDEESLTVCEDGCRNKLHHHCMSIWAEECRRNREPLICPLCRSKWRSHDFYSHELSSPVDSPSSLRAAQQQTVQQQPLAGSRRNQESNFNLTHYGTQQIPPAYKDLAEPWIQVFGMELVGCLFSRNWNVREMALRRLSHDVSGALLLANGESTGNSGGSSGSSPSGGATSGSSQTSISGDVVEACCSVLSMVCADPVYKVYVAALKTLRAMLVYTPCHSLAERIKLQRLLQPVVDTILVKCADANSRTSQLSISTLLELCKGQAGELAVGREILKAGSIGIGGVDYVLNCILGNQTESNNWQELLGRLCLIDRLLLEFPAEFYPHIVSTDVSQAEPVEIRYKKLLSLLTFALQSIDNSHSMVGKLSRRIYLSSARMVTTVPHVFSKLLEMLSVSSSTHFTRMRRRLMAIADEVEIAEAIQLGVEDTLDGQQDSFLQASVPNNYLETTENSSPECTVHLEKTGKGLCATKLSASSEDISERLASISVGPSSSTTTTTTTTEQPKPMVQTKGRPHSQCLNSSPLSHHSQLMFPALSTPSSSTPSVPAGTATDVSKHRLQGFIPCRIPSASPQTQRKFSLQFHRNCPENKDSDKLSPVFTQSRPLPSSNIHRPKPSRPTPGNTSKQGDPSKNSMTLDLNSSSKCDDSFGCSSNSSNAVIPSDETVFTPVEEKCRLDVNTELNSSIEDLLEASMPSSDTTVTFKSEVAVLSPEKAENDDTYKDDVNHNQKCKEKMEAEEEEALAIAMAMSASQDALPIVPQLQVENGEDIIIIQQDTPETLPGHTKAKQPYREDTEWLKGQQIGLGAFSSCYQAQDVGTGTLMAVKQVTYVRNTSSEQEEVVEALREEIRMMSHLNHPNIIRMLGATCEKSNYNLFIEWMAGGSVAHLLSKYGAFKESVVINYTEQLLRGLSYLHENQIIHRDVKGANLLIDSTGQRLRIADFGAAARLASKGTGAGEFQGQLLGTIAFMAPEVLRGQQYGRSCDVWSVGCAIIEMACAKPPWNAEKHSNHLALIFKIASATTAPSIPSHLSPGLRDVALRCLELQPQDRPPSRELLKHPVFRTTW

Sample 1 — target: Sox-I, HMG box (Salpingoeca helianthica); method: Spec-seq; molecule type: double-stranded DNA, one strand shown; sample: in vitro; concentration: not given; setting: whole probe, mean of replicates; relative to: not given; reading: lower = stronger binding; constant ends, left off below: GAGTCGTCTCGTCAGCAC … CCGTAGAGCACTCAGGTC
Construct (chain): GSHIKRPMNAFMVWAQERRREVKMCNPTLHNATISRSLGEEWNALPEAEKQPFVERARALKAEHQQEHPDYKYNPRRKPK
`CATGACG` — result for “relative binding energy”: 0.488 ln ratio.
`GCTGGTT` — result for “relative binding energy”: 0.988 ln ratio.
Under “relative binding energy”, `GTGCGTT` is recorded as 1.03 ln ratio.
`CAACGTT`: “relative binding energy” 0.788 ln ratio.
`GGACGTT` — result for “relative binding energy”: 1.15 ln ratio.
`CATGGTG`: “relative binding energy” 0.79 ln ratio.
`GAAGGTT` — result for “relative binding energy”: 1.21 ln ratio.
`CATTACT`: “relative binding energy” 0.447 ln ratio.

Sample 2 — observed: cell-free assay; method: competition with immobilised ligand; concentration: 1 µM
Structure (SMILES): NS(=O)(=O)c1cc(NC(=O)Cc2ccccc2)ccc1Oc1cccc(Cl)c1
For MAP3K1 (Homo sapiens, UniProt Q13233): remaining binding read 66%.
For SRC (Homo sapiens, UniProt P12931): remaining binding read 90%.
It gave 100% for remaining binding (AKT2 (Homo sapiens, UniProt P31751)).
STK16 (Homo sapiens, UniProt O75716) — remaining binding: 95%.
For SIK2 (Homo sapiens, UniProt Q9H0K1): remaining binding read 100%.
It gave 100% for remaining binding (Ribosomal protein S6 kinase alpha-4, N-terminal kinase domain (RPS6KA4, Homo sapiens, UniProt O75676)).
It gave 78% for remaining binding (MAP3K19 (Homo sapiens, UniProt Q56UN5)).
For MYLK2 (Homo sapiens, UniProt Q9H1R3): remaining binding read 81%.
PIK3CA (Homo sapiens, UniProt P42336, Q546K) — remaining binding: 92%.
For CDC42BPB (Homo sapiens, UniProt Q9Y5S2): remaining binding read 100%.
For MAP4K2 (Homo sapiens, UniProt Q12851): remaining binding read 84%.
For ACVR1B (Homo sapiens, UniProt P36896): remaining binding read 98%.
It gave 94% for remaining binding (BMP2K (Homo sapiens, UniProt Q9NSY1)).
MAP3K15 (Homo sapiens, UniProt Q6ZN16) — remaining binding: 100%.

Sample 3 — cell line: mouse MPNST tumor cells; method: high-content nuclear imaging; refers to: cell number; concentration: 10 µM; time: 12 h; setting: mean of 2 replicates; relative to: plate mean; reading: higher = more cells
For CCCOc1ccn2c(C(C)=O)cc(-c3ccccc3S(C)(=O)=O)c2c1, the nuclei count was -0.244 z-score.
The nuclei count of CCn1c(=O)n(C2=C(CO)CN(CC3CCCCCCC3)CC2)c2ccccc21 is reported as 0.41 z-score.
C[S+]([O-])c1ccc(-c2nc(-c3ccc(F)cc3)c(-c3ccncc3)[nH]2)cc1 (stereo not drawn) has a nuclei count of 2.05 z-score.

Single results of other studies
The remaining compound of O=C(NC1CCS(=O)(=O)C1)c1ccc(Br)cc1 (stereo not drawn) is reported as over 99% (human, microsomes or S9; 2 µM, 0.5 h).
The IC50 of Cc1cc2c(C(N)=O)c(N)n(-c3c(C)ccc(O)c3C)c2nc1C is reported as 0.186 µM (biomarker-positive cells (CCNE1 amp, FBXW7 mut, PPP2R1A loss); cell growth; 168 h, average).
The remaining compound of NCCN1CCOC(CC(=O)Nc2cc(Cl)cc(Cl)c2)C1=O (stereo not drawn) is reported as 84.6% (human, microsomes or S9; 2 µM, 0.5 h).
With CC[C@@H](C)c1nc2cc(Nc3ccnc4ccc(S(=O)(=O)C(C)C)cc34)ccc2s1 the EC50 was 3.9 µM and 6.91 µM and 3.67 µM (L929; TNF-α-induced necroptosis, inhibitor, CCK-8; together with: TNF-α, zVAD).
For Cc1cc2c(cc1S(=O)(=O)N(C)CC1OC3CCCCC3c3sccc31)NC(=O)CO2 (stereo not drawn), the remaining compound was 85.8% (human, microsomes or S9; 2 µM, 0.5 h).

Repeated from above (sample 2):
It gave 94% for remaining binding (BMP2K (Homo sapiens, UniProt Q9NSY1)).
It gave 78% for remaining binding (MAP3K19 (Homo sapiens, UniProt Q56UN5)).
For SRC (Homo sapiens, UniProt P12931): remaining binding read 90%.
It gave 100% for remaining binding (Ribosomal protein S6 kinase alpha-4, N-terminal kinase domain (RPS6KA4, Homo sapiens, UniProt O75676)).
PIK3CA (Homo sapiens, UniProt P42336, Q546K) — remaining binding: 92%.
